Results from different studies.
Compare with care: the assays were run in different laboratories.

| SMILES | target or system | test | system | setting | how to read | quantity | value |
| --- | --- | --- | --- | --- | --- | --- | --- |
| CC(C)(C)C(=O)OCOP(=O)(OCOC(=O)C(C)(C)C)C1CCCN(O)C1=O (centres unmarked) | UACC-62 | – | – | – | – | GI50 | 0.318 µM |
| CC(C)CC(C(=O)N1CC2(CC1C#N)C(=O)Nc1ccccc12)N(C)C(=O)c1cc2c(F)cc(F)c(F)c2[nH]1 (centres unmarked) | Human coronavirus 229E | cytopathic effect | MRC5 | 36.82 nM | – | inhibition | 104% |
| CCN(CC)C(=O)[C@@H]1C=C2c3cccc4c3c(cn4C(=O)c3cccs3)C[C@H]2N(C)C1 | – | magnetometer | C57BL/6J mouse, male | intraperitoneal, 1.5 mg/kg, 30 min session | – | head-twitch response count | 42.3 |
| COc1ccccc1-c1n[nH]c2nc(N[C@H]3CC[C@H](NS(=O)(=O)CC(C)C)CC3)ncc12 | – | bead binding, competition bead pull-down, refers to: LMJF.21.1552 | Leishmania donovani extract | 10 µM | baseline: vehicle | relative abundance | 1.11 |
| CC(O)CN.O=C(O)C(Cl)Cl | Solanum nigrum | herbicidal activity | – | 15 mg/mL, 21 days, post-emergence greenhouse | – | inhibition | 64% |
| Cc1cc(C(=O)Nc2nc3cccc(C)c3n2[C@H]2CCCCN(C(=O)/C=C/CN(C)C)C2)ccn1 | Trypanosoma brucei | propidium iodide flow cytometry | bloodstream form | concentration not given, 72 h | – | cells in G2 phase | 28.3% |
| Cc1cc(Oc2nc(N3CC[C@@H](c4ccncc4)C3)ncc2F)[nH]n1 | Ovarian cancer cell lines | cell proliferation | – | – | – | IC50 | 42.7 µM |
| COc1ccccc1-c1n[nH]c2nc(NC3CCN(C(=O)Cc4ccc(F)cc4F)CC3)ncc12 | – | bead binding, competition bead pull-down, refers to: LINJ.10.0480 | Leishmania donovani axenic amastigote extract | 10 µM | baseline: vehicle | relative abundance | 0.94 |

Repeated from above:
| SMILES | target or system | test | system | setting | how to read | quantity | value |
| --- | --- | --- | --- | --- | --- | --- | --- |
| COc1ccccc1-c1n[nH]c2nc(N[C@H]3CC[C@H](NS(=O)(=O)CC(C)C)CC3)ncc12 | – | bead binding, competition bead pull-down, refers to: LMJF.21.1552 | Leishmania donovani extract | 10 µM | baseline: vehicle | relative abundance | 1.11 |
